Published values gathered from unrelated publications.
Parts stem from different laboratories: compare values within a part only. “And” joins repeats or separate records; there may be more than shown.
Chain of UniProt P10721 (whole entry, unmodified, looked up): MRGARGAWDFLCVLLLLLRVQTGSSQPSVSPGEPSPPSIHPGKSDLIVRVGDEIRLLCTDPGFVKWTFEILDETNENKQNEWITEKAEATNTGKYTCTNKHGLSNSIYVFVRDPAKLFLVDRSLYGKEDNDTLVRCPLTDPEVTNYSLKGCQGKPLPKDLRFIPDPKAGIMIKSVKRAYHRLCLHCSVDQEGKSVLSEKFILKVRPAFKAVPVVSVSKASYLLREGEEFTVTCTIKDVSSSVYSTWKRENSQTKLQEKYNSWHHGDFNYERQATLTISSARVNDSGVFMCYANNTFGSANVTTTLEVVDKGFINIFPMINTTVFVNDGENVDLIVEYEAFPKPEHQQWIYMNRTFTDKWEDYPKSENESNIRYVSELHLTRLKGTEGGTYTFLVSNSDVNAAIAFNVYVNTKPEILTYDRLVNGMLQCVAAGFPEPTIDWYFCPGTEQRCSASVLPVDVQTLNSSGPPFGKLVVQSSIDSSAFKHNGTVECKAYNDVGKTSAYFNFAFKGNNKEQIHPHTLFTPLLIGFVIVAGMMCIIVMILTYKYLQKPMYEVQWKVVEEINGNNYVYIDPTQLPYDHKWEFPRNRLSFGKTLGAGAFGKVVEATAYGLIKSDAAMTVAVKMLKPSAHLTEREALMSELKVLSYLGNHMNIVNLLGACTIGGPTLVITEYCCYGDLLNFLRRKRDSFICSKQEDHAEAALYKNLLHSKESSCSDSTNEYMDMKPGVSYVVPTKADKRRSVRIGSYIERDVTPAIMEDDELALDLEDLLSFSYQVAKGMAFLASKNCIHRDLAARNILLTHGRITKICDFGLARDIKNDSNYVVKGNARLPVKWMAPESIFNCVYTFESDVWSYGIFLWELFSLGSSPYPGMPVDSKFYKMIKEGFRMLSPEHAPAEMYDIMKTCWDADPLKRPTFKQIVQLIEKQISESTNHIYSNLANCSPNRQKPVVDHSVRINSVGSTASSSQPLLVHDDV
Chain of UniProt Q8N4C8 (whole entry, looked up): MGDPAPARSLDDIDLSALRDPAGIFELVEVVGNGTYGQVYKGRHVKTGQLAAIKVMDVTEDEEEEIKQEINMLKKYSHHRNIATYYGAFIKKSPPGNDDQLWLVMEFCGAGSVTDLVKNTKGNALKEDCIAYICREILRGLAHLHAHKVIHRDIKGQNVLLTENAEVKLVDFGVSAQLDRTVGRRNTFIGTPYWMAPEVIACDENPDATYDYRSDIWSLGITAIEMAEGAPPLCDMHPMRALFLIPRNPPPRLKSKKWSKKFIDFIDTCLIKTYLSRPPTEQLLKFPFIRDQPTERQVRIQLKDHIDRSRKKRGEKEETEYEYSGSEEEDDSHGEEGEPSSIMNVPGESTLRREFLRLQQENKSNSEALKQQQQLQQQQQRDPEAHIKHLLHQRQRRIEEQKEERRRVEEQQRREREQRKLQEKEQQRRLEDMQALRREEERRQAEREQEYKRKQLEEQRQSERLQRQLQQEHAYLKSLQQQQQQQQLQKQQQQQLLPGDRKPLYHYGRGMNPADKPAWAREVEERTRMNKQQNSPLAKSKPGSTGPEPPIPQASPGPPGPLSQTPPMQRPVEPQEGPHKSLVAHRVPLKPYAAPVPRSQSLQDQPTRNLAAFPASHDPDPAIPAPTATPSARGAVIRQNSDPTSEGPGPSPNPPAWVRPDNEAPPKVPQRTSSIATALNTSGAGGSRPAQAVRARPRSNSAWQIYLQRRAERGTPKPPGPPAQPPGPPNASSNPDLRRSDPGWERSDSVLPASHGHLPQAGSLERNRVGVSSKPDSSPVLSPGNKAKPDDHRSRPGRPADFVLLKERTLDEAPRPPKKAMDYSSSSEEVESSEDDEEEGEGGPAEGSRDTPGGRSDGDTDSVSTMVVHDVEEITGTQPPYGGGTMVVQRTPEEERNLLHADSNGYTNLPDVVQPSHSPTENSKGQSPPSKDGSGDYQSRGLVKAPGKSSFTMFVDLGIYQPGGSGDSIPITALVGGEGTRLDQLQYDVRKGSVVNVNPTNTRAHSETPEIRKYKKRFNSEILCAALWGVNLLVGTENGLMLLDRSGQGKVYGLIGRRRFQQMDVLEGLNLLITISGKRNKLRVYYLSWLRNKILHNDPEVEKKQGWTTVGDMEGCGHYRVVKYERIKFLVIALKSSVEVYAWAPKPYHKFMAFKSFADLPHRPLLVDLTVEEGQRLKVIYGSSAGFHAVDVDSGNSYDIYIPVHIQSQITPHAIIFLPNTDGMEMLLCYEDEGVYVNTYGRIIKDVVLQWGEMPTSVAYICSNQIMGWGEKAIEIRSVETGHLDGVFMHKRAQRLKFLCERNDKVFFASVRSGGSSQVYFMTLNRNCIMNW
Chain of UniProt Q9H3Y6 (whole entry, looked up): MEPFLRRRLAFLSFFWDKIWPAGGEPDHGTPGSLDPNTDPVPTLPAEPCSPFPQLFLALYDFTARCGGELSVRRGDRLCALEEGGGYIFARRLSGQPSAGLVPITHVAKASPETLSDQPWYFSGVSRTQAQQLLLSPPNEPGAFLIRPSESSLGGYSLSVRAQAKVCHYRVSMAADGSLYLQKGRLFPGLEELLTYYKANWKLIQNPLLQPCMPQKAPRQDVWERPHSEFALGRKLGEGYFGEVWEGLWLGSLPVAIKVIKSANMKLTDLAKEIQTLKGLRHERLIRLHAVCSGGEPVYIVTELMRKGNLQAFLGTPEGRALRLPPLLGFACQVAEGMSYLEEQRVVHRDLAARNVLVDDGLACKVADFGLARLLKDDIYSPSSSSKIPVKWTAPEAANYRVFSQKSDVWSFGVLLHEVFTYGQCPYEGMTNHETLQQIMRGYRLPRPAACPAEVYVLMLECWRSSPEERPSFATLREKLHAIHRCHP
Chain of UniProt Q9UBE8 (whole entry, looked up): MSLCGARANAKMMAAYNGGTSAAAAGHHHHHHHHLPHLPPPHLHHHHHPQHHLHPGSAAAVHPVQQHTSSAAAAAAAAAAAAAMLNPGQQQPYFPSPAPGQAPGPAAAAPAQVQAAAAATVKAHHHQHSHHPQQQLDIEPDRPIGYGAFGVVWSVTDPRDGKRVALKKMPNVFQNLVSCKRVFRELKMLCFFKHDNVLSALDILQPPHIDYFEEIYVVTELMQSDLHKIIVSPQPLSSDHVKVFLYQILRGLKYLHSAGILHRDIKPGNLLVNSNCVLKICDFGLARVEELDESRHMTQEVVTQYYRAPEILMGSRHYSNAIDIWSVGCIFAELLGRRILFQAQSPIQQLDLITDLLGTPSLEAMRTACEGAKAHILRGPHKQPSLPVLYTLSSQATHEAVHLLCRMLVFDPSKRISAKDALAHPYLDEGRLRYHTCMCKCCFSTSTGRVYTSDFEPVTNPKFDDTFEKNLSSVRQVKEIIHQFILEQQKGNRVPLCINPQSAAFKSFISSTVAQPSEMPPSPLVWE

Block 1
Target: Membrane-associated tyrosine- and threonine-specific cdc2-inhibitory kinase (PKMYT1, Homo sapiens, UniProt Q99640)
Observed: binding
Method: HTRF
Concentration: 0.051 nM
Target sequence (Q99640 1-499): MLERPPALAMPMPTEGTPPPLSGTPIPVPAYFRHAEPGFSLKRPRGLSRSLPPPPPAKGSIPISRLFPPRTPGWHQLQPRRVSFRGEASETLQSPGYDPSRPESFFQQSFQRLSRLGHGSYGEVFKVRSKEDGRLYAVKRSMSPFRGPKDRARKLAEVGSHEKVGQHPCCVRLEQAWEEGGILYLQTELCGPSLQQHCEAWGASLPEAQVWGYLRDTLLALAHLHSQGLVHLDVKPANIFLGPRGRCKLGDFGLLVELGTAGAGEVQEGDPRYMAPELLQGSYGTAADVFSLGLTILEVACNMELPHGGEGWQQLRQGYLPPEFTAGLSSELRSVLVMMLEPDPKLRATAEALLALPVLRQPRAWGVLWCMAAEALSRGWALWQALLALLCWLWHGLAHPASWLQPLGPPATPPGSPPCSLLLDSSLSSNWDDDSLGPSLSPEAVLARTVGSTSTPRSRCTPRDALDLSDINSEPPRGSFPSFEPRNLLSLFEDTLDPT
With Cc1ccc(O)c(C)c1-c1cnc2[nH]c(-c3cnc(N4CCC(CCN5CCN(c6ccc7c(c6)C(=O)N(C6CCC(=O)NC6=O)C7=O)CC5)CC4)nc3)cc2c1C#N (racemic) the inhibition was -0.024% and 0.329%.
With Cc1ccc(O)c(C)c1-c1cnc2[nH]c(-c3cnc(N4CCC(CN5CCN(c6c(F)cc(NC7CCC(=O)NC7=O)cc6F)CC5)CC4)nc3)cc2c1C#N (racemic) the inhibition was -6.27% and -4.72%.
Cc1ccc(O)c(C)c1-c1cnc2[nH]c(-c3cnc(N4CCC5(CC4)CC(N4CCN(c6ccc7c(c6)C(=O)N(C6CCC(=O)NC6=O)C7=O)CC4)CO5)nc3)cc2c1C#N (mixture of isomers) gave an inhibition of 0.035% and 0.709%.
For Cc1ccc(O)c(C)c1-c1cnc2[nH]c(-c3cnc(N4CCC(CN5CCN(c6ccc(NC7CCC(=O)NC7=O)c(F)c6)CC5)CC4)nc3)cc2c1C#N (racemic), the inhibition was 1.14% and -0.554%.
Cc1ccc(O)c(C)c1-c1cnc2[nH]c(-c3cnc(N4CCC(CCN5CCN(c6ccc(N7CCC(=O)NC7=O)cc6F)CC5)CC4)nc3)cc2c1C#N gave an inhibition of -5.49% and -3.21%.

Block 2
SMILES: C#Cc1cccc2cc(O)cc(-c3ncc4c(N5CC6CCC(C5)N6)nc(OCC56CCCN5CCC6)nc4c3F)c12
Target: GTPase KRas (KRAS, Homo sapiens, UniProt P01116, G12D)
Observed: binding
Method: NanoBRET
Cells: HEK293 (live)
Direction: lower = stronger binding
For 0.5229 µM: target engagement read 3.29% and 3.87% and 4.93%.
For 0.04576 µM: target engagement read 11.3% and 12.2% and 12.4%.
For 1 µM: target engagement read 2e-15% and -0.243% and -1.25%.

Block 3
SMILES: C[C@@H]1CN(c2ccc(-c3cc(C(=O)NCCOCCOCCOCCOCCNC(=O)/C=C/c4[nH]cc(C(=O)N[C@@H](CC(N)=O)c5ccc(F)c(Cl)c5)c4-c4ccc(Cl)cc4F)ccc3F)cc2NC(=O)c2c[nH]c(=O)cc2C(F)(F)F)C[C@H](C)N1C
Observed: thermal unfolding
Method: differential scanning fluorimetry
Concentration: 5.5 µM
Direction: higher = more unfolded
WDR5: WD repeat-containing protein 5 (WDR5, Homo sapiens, UniProt P61964)
DCAF1: DDB1- and CUL4-associated factor 1 (DCAF1, Homo sapiens, UniProt Q9Y4B6)
Chain of UniProt Q9Y4B6 (whole entry, looked up): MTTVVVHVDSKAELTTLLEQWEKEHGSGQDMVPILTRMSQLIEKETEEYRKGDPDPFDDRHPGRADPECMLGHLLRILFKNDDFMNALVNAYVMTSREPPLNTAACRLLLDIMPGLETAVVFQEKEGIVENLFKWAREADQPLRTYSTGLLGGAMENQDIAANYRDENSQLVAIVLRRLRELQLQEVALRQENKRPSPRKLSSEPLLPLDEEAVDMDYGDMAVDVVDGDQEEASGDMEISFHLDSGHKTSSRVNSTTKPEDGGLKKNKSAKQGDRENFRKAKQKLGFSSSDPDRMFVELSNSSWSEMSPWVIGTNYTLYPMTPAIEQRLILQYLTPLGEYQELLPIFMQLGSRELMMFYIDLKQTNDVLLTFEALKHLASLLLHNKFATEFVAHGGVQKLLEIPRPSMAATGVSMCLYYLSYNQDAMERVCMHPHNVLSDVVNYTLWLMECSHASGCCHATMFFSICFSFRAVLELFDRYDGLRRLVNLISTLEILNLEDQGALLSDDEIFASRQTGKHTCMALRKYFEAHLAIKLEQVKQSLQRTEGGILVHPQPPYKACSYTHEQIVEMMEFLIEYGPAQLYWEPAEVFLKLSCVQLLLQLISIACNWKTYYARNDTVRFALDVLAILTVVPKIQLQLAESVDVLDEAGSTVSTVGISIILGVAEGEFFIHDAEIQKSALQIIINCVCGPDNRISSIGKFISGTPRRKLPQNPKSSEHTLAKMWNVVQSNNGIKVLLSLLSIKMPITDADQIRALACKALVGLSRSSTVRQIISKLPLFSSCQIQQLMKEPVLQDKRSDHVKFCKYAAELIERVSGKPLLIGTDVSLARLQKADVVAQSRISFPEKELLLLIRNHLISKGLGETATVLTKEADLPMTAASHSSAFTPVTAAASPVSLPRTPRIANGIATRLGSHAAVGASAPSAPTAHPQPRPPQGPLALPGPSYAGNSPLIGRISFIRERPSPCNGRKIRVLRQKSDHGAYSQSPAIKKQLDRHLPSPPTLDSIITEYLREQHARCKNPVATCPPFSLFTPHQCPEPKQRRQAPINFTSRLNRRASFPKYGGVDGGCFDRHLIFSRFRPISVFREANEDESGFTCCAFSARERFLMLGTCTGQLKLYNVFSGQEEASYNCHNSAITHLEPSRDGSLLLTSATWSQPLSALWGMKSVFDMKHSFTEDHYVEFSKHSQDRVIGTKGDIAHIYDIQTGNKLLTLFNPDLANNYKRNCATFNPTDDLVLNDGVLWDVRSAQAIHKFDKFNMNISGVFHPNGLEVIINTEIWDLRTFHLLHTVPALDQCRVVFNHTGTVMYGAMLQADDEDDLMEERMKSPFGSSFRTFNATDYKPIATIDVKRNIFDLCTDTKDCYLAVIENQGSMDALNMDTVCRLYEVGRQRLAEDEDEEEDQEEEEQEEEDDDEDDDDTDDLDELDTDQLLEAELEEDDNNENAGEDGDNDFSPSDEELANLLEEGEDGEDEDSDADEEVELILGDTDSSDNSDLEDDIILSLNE
The “SYPRO Orange fluorescence” was 13800 a.u. (WDR5; 40.4 °C).
It gave 11800 a.u. for “SYPRO Orange fluorescence” (DCAF1; 40.6 °C).
It gave 31800 a.u. for “SYPRO Orange fluorescence” (WDR5; 77.21 °C).
The “SYPRO Orange fluorescence” was 58500 a.u. (DCAF1; 64.81 °C).
It gave 56600 a.u. for “SYPRO Orange fluorescence” (DCAF1; 69.41 °C).
The “SYPRO Orange fluorescence” was 35900 a.u. (DCAF1; 89.21 °C).
It gave 12900 a.u. for “SYPRO Orange fluorescence” (DCAF1; 44.8 °C).
It gave 15600 a.u. for “SYPRO Orange fluorescence” (WDR5; 46.6 °C).
WDR5; 55.01 °C — “SYPRO Orange fluorescence”: 16800 a.u.
WDR5; 30.8 °C — “SYPRO Orange fluorescence”: 12800 a.u.
The “SYPRO Orange fluorescence” was 12700 a.u. (WDR5; 32.6 °C).

Block 4
Structure (SMILES): CCC1(c2cccc(-c3cn(C)nc3C)c2)C2=C(Nc3n[nH]cc31)C(F)C(C)(C)CC2=O (single isomer, unassigned)
Concentration: 1 µM
The remaining binding was 95% (Serine/threonine-protein kinase PLK4 (PLK4, Homo sapiens, UniProt O00444); binding, competition with immobilised ligand).
For 1-phosphatidylinositol 3-phosphate 5-kinase (PIKFYVE, Homo sapiens, UniProt Q9Y2I7); binding, competition with immobilised ligand: remaining binding read 93%.
The remaining binding was 100% (Protein kinase C delta type (PRKCD, Homo sapiens, UniProt Q05655); binding, competition with immobilised ligand).
For Dual specificity testis-specific protein kinase 1 (TESK1, Homo sapiens, UniProt Q15569); binding, competition with immobilised ligand: remaining binding read 100%.
The remaining binding was 100% (Tyrosine-protein kinase Yes (YES1, Homo sapiens, UniProt P07947); kinase binding, KINOMEscan; baseline: DMSO control).
Tyrosine-protein kinase Srms (SRMS, Homo sapiens, UniProt Q9H3Y6); binding, competition with immobilised ligand — remaining binding: 88%.
Mast/stem cell growth factor receptor Kit (KIT, Homo sapiens, UniProt P10721, D816V); kinase binding, KINOMEscan; baseline: DMSO control — remaining binding: 100%.
The remaining binding was 91% (Serine/threonine-protein kinase MRCK gamma (CDC42BPG, Homo sapiens, UniProt Q6DT37); KINOMEscan).
It gave 100% for remaining binding (Citron Rho-interacting kinase (CIT, Homo sapiens, UniProt O14578); binding, competition with immobilised ligand).
For Mast/stem cell growth factor receptor Kit (KIT, Homo sapiens, UniProt P10721, D816H); binding, competition with immobilised ligand: remaining binding read 100%.
For Cyclin-dependent kinase 8 (CDK8, Homo sapiens, UniProt P49336); kinase binding, KINOMEscan; baseline: DMSO control: remaining binding read 100%.
The remaining binding was 100% (RAC-beta serine/threonine-protein kinase (AKT2, Homo sapiens, UniProt P31751); kinase binding, KINOMEscan; baseline: DMSO control).
Mitogen-activated protein kinase 6 (MAPK6, Homo sapiens, UniProt Q16659); kinase binding, KINOMEscan; baseline: DMSO control — remaining binding: 100%.
The remaining binding was 92% (Misshapen-like kinase 1 (MINK1, Homo sapiens, UniProt Q8N4C8); kinase binding, KINOMEscan; baseline: DMSO control).
It gave 100% for remaining binding (Serine/threonine-protein kinase NLK (NLK, Homo sapiens, UniProt Q9UBE8); binding, competition with immobilised ligand).
For Serine/threonine-protein kinase MAK (MAK, Homo sapiens, UniProt P20794); kinase binding, KINOMEscan; baseline: DMSO control: remaining binding read 85%.
Dual specificity protein kinase CLK4 (CLK4, Homo sapiens, UniProt Q9HAZ1); kinase binding, KINOMEscan; baseline: DMSO control — remaining binding: 100%.

Repeated from above (block 1):
Cc1ccc(O)c(C)c1-c1cnc2[nH]c(-c3cnc(N4CCC(CCN5CCN(c6ccc(N7CCC(=O)NC7=O)cc6F)CC5)CC4)nc3)cc2c1C#N gave an inhibition of -5.49% and -3.21%.
For Cc1ccc(O)c(C)c1-c1cnc2[nH]c(-c3cnc(N4CCC(CN5CCN(c6ccc(NC7CCC(=O)NC7=O)c(F)c6)CC5)CC4)nc3)cc2c1C#N (racemic), the inhibition was 1.14% and -0.554%.
With Cc1ccc(O)c(C)c1-c1cnc2[nH]c(-c3cnc(N4CCC(CCN5CCN(c6ccc7c(c6)C(=O)N(C6CCC(=O)NC6=O)C7=O)CC5)CC4)nc3)cc2c1C#N (racemic) the inhibition was -0.024% and 0.329%.
Cc1ccc(O)c(C)c1-c1cnc2[nH]c(-c3cnc(N4CCC5(CC4)CC(N4CCN(c6ccc7c(c6)C(=O)N(C6CCC(=O)NC6=O)C7=O)CC4)CO5)nc3)cc2c1C#N (mixture of isomers) gave an inhibition of 0.035% and 0.709%.
With Cc1ccc(O)c(C)c1-c1cnc2[nH]c(-c3cnc(N4CCC(CN5CCN(c6c(F)cc(NC7CCC(=O)NC7=O)cc6F)CC5)CC4)nc3)cc2c1C#N (racemic) the inhibition was -6.27% and -4.72%.
